Measurements pooled from the literature.
Compare with care: the assays were run in different laboratories.

| SMILES | test | system | conditions | endpoint | value |
| --- | --- | --- | --- | --- | --- |
| COc1cc(Nc2ncc3c(n2)-c2ccc(Cl)cc2C(c2c(F)cccc2OC)=NC3)ccc1C(=O)O | – | cancer patients | oral, dose not given, grade 3 any attribution, with: pembrolizumab | patients with dry skin | 4% |
| COc1ccc([C@@H](O)c2cc(-c3ncnc4cc(N5CCOCC5)ccc34)c(F)cc2Cl)nn1 | – | locally advanced rectal cancer patients | 150 mg, drug-related adverse events, with: capecitabine and radiotherapy | patients with fatigue | 17% |
| Cc1cc(NC2CCN(C(=O)OC3CCN(C(=O)/C=C/CN(C)C)C3)CC2)n2ncc(C(C)C)c2n1 (stereo not shown) | – | patients with advanced solid tumours | dose not given, TIW arm, grade 3 or higher | patients with adverse events | 27% |
| C[C@@H](c1ccc2nccn2c1)n1nnc2ncc(-c3cnn(C)c3)nc21 | item: treatment-related grade ≥3 Neutropenia | EGFR-mutant MET-altered NSCLC | oral, dose not given, all | patients with adverse events | 2% |
| NC(=O)N1c2ccccc2C=Cc2ccccc21 | – | male patients | oral, dose not given, treatment-related adverse events | patients with Pruritus | 7% |
| CCO[C@H]1CCN(Cc2c(OC)cc(C)c3[nH]ccc23)[C@H](c2ccc(C(=O)O)cc2)C1 | item: Hematuria | PNH patients, active haemolysis | oral, 200 mg twice daily, extension phase | patients with adverse event | 0% |
| C[C@@H](Nc1cc(F)cc(F)c1)c1cc(C(=O)N(C)C)cc2c(=O)cc(N3CCOCC3)oc12 | CTCAE v4, item: maculopapular rash | patients with advanced solid tumours | oral, dose not given, phase I dose finding | patients discontinuing for AE | 1.6% |
| C=CC(=O)NC1CCN(c2ncc3ncnc(Nc4ccc(Oc5ccc6c(c5)ncn6C)c(C)c4)c3n2)CC1 | – | male patients | oral, dose not given, treatment-related adverse events | patients with back pain | 0% |
| CNC(=O)c1ccc(-c2cnc3ncc(Cc4ccc5ncccc5c4)n3n2)cc1F | item: Vomiting, all grades | cancer patients | oral, 600 mg twice daily, expansion cohort, any causality | patients with adverse event | 29% |
| Cc1cc(-c2nnc(N)nc2-c2ccc(F)cc2)cc(Cl)n1 | item: Colitis | IO-naive colorectal cancer patients | oral, dose not given, treatment-related, grade 2 | patients with immune-mediated AE | 0% |
| CCOc1c([C@H](C)n2nc(C)c3c(N)ncnc32)cc(Cl)c(F)c1[C@@H]1CNC(=O)C1 | item: QRS >100 to ≤110 ms | previously treated B-cell malignancy | oral, 45 mg once daily, baseline below thresholds | patients | 0% |
| O=C(Nc1nc2cccc(-c3ccc(CN4CCS(=O)(=O)CC4)cc3)n2n1)C1CC1 | – | rheumatoid arthritis patients | oral, 100 mg twice daily, 4 weeks, TEAE regardless of relatedness | patients with Vomiting | 0% |
| CNC(=O)c1cc(Oc2ccc(NC(=O)Nc3cc(C(C)(C)C)nn3-c3ccc4ncccc4c3)c(F)c2)ccn1 | – | patients | oral, dose not given, cycles 1 and 2, Low AUC subgroup | patients with grade 1 musculoskeletal disorders | 20% |
